Published values collected from several papers.
Protocols differ between the studies behind these lines. ± marks the error that the study gave.
GRPR: Gastrin-releasing peptide receptor (GRPR, Homo sapiens, UniProt P30550)
Sequence of UniProt P30550 (whole entry, looked up): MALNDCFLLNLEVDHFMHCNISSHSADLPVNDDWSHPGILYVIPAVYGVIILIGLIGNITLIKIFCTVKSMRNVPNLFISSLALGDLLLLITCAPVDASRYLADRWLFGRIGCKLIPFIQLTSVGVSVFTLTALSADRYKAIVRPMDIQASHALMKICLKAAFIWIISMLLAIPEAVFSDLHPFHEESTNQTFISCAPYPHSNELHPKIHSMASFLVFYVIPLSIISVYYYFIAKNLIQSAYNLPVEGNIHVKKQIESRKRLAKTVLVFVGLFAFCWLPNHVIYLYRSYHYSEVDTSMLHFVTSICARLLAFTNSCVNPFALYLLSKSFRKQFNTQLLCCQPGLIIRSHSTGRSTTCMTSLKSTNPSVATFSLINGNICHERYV
Proteasome component C5/PSMB5: Proteasome component C5/PSMB5 (Homo sapiens, UniProt P20618+P28074)
Sequence of UniProt P20618 (whole entry, looked up): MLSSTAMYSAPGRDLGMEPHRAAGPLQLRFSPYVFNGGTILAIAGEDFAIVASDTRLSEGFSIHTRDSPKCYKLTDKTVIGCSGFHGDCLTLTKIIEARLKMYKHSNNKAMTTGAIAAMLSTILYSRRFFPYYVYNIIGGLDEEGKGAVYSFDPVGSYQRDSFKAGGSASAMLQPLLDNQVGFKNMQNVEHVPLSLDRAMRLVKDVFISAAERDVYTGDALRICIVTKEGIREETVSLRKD
Sequence of UniProt P28074 (whole entry, looked up): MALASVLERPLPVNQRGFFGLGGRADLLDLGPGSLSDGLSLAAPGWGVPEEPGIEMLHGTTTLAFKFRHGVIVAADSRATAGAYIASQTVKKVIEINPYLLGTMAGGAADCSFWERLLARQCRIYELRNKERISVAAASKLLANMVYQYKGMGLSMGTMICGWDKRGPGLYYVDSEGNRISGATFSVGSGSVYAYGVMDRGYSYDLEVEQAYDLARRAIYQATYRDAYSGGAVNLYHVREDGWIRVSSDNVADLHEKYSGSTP
CACNA1C: Voltage-dependent L-type calcium channel subunit alpha-1C (CACNA1C, Homo sapiens, UniProt Q13936)
Sequence of UniProt Q13936 (whole entry, looked up): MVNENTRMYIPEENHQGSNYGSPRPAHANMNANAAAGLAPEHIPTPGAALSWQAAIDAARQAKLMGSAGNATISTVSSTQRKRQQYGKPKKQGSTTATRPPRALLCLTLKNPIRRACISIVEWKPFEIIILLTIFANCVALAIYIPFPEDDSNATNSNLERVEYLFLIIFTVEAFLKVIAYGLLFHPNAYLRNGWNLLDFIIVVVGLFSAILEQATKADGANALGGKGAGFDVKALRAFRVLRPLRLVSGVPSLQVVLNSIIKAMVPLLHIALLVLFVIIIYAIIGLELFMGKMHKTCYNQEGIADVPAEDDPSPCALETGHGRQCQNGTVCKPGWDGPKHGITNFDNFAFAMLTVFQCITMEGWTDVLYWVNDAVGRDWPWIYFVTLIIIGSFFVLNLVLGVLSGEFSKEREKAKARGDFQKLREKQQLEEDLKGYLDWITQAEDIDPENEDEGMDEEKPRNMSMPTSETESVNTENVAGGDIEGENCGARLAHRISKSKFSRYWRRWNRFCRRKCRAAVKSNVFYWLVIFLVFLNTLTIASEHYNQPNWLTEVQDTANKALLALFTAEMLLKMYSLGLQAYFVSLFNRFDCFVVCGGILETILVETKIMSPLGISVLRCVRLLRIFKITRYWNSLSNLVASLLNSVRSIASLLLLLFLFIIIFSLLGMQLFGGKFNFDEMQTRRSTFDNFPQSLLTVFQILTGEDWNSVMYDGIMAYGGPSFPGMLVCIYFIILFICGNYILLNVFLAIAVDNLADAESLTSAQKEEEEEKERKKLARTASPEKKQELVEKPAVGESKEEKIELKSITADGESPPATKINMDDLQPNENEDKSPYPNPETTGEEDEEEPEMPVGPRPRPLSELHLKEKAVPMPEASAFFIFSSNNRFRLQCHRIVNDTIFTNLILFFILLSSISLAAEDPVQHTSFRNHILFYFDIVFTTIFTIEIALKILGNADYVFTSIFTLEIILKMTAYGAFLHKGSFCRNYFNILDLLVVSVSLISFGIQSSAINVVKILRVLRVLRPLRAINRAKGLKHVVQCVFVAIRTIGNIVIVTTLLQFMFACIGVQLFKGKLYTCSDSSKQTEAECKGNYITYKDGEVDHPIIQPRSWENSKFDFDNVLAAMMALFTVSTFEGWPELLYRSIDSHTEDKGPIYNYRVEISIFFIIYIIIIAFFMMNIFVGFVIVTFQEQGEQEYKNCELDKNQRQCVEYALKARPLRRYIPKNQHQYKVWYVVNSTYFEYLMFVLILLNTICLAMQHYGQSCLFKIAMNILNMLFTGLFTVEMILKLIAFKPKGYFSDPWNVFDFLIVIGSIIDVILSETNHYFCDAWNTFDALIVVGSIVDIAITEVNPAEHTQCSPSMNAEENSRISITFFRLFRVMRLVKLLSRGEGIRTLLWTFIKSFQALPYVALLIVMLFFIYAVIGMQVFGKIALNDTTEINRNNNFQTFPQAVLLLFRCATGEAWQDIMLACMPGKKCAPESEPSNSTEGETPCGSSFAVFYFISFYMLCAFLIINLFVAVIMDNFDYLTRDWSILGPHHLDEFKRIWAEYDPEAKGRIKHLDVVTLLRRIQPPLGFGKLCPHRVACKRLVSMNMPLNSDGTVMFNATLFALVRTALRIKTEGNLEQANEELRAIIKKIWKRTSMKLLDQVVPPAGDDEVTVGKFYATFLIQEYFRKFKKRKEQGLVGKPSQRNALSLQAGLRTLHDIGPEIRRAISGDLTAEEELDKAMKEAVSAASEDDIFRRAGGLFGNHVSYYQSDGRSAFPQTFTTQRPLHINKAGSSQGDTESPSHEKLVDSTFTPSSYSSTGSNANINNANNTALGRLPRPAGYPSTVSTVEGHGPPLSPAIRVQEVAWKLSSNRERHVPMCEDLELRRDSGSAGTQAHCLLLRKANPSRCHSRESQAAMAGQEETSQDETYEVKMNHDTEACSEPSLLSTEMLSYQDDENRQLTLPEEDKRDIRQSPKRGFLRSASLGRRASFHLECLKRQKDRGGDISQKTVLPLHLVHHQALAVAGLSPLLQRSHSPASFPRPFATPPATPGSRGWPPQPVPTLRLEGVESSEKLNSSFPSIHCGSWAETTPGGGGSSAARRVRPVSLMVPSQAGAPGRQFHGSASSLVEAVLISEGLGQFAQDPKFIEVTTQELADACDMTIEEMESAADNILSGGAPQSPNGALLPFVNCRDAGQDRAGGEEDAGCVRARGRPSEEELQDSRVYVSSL
Sequence of UniProt Q9HC97 (whole entry, looked up): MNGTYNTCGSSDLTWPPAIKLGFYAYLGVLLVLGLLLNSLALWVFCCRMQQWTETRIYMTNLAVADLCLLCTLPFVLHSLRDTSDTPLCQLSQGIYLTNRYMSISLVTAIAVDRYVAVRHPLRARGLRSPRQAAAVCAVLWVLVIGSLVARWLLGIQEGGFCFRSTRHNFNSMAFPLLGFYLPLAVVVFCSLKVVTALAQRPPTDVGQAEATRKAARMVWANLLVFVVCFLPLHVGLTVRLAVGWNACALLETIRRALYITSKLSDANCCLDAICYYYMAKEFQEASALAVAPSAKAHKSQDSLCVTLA
Sequence of UniProt Q13526 (whole entry, looked up): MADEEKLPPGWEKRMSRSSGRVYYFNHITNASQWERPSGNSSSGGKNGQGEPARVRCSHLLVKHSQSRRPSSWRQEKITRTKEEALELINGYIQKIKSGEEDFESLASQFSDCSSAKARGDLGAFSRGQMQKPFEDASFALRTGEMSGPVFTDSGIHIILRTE
Sequence of UniProt Q09470 (whole entry, looked up): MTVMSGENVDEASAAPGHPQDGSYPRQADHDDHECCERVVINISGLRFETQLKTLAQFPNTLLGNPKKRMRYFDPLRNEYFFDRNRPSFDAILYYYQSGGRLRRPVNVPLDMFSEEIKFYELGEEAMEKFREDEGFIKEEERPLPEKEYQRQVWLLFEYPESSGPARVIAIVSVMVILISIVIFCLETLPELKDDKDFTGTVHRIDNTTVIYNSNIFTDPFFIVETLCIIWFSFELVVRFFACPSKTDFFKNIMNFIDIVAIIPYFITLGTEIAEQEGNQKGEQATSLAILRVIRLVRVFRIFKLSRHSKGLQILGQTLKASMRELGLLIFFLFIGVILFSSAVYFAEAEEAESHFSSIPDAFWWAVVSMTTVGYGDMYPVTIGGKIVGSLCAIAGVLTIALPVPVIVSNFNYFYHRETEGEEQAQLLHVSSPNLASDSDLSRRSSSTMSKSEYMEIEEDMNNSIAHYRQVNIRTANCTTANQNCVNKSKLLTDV
Sequence of UniProt P03951 (whole entry, looked up): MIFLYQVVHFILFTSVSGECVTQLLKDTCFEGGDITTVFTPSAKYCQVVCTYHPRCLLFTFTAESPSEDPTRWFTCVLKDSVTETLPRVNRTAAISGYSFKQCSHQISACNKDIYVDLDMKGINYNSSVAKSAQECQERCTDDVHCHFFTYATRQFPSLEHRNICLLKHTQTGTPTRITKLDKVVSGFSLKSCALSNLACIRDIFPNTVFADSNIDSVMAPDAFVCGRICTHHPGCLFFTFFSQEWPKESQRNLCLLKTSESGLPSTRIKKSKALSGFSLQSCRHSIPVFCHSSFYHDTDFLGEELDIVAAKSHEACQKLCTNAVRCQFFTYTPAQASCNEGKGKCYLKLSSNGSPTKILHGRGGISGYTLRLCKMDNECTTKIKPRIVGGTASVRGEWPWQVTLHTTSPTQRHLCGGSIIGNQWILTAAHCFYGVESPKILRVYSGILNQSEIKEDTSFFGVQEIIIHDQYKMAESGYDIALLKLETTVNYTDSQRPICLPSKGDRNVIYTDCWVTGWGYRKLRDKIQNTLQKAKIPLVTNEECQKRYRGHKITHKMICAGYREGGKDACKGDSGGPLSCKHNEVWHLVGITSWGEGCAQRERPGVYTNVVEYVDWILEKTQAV
Sequence of UniProt P00383 (whole entry, looked up): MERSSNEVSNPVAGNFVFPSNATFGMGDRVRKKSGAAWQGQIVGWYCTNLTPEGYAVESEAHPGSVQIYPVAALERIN
Sequence of UniProt P00441 (whole entry, looked up): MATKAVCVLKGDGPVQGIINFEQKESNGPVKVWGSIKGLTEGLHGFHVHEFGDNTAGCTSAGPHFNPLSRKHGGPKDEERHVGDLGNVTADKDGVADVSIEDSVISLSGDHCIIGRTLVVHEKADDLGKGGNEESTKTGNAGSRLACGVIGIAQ

O=C(OC(C(F)(F)F)C(F)(F)F)N1CCC(CCn2cc3ccccc3n2)CC1  IC50 (MGLL (Homo sapiens, UniProt Q99685); enzyme activity, inhibitor): 0.17 µM
CC(C)C[C@@H](CN[C@@H](Cc1ccc(Cl)cc1)C(N)=O)NC(=O)[C@H](Cc1c[nH]cn1)NC(=O)CNC(=O)[C@@H](NC(=O)[C@H](C)NC(=O)[C@H](Cc1c[nH]c2ccccc12)NC(=O)[C@H](CCC(N)=O)NC(=O)[C@H](N)Cc1ccccc1)C(C)C  IC50 (GRPR; binding, radioligand binding; HuTu80): 0.00123 ± 9e-05 µM
N#CN1CC[C@H](C(=O)Nc2nc3c(s2)CN(C(=O)Cn2cc(CCCNC(=O)c4ccc(-c5c6ccc(=N)cc-6oc6cc(N)ccc56)c(C(=O)O)c4)nn2)CC3)C1  IC50 (UCHL1 (Homo sapiens, UniProt P09936); enzyme activity, inhibitor, fluorescence; with preincubation): 0.44 µM
CC1CN(c2ncnc3[nH]cnc23)CC(C)O1 (centres unmarked)  IC50 (Chemotaxis protein CheA (Escherichia coli, UniProt P07363); enzyme activity, inhibitor, radiometric): 709 µM
Cc1ccc(CNC(=O)[C@H](CCCCNC(=O)OCc2ccccc2)NC(=O)[C@H](CC2CCCCC2)NC(=O)Cc2cccnc2)cc1  IC50 (Proteasome component C5/PSMB5; β5 activity, inhibitor; with: Suc-LLVY-AMC, PA28α-activated): > 100 µM
CC(C)[C@H](NC(=O)[C@H](C)NC(=O)[C@H](Cc1c[nH]c2ccccc12)NC(=O)[C@H](Cc1c[nH]cn1)NC(=O)[C@H](N)Cc1ccc(O)cc1)C(=O)N[C@H](C)C(=O)N[C@@H](Cc1c[nH]cn1)C(=O)N1CCC[C@@H]1CN[C@@H](Cc1ccccc1)C(N)=O  IC50 (GRPR; inositol phosphate generation, antagonist; Balb 3T3 expressing GRPR; with: GRP 1 nM): 0.168 ± 0.02 µM
O=C(NCc1nc(-c2ccc(Br)cc2)c[nH]1)Nc1ncc(Sc2ccccn2)s1  IC50 (Enoyl-(Acyl-carrier-protein) reductase (Streptococcus pneumoniae, UniProt Q9FBC5); enzyme activity, inhibitor): 0.067 µM
COc1ccc(S(=O)(=O)NCc2c[nH]nc2-c2cccs2)cc1  IC50 (skeletal myosin, rabbit; actin-activated ATPase): 1 ± 0.4 µM
CC(=O)NCC(=O)N[C@@H](CC(=O)O)C(=O)N[C@@H](Cc1ccc(O)cc1)C(=O)N[C@@H](CO)C(=O)N[C@@H](Cc1cnc[nH]1)C(=O)N[C@H]1CSSC[C@@H](C(=O)N[C@H](C(=O)N[C@@H](Cc2ccc(O)cc2)C(=O)N2CCC[C@H]2C(=O)N[C@@H](CC(=O)O)C(=O)N2CCC[C@H]2C(=O)N[C@@H](CCC(=O)O)C(=O)NCC(=O)NCC(=O)NCC(N)=O)[C@@H](C)O)NC(=O)[C@H](CCCCN)NC(=O)[C@H](Cc2c[nH]c3ccccc23)NC(=O)[C@H](Cc2c[nH]c3ccccc23)NC(=O)[C@@H]2CCCN2C(=O)[C@H](Cc2ccc(O)cc2)NC(=O)[C@H](Cc2ccc(O)cc2)NC(=O)[C@H](CCCNC(=N)N)NC(=O)[C@H](CC(C)C)NC(=O)[C@@H]2CCCN2C(=O)[C@H](CO)NC1=O  IC50 (ACE2 (Homo sapiens, UniProt Q9BYF1); inhibitor): 0.158 µM
CCOc1cncc(-c2ccc(NC(=O)C3(c4ccnc(NS(=O)(=O)C5CC5)n4)CCOCC3)nc2)n1  IC50 (CTP synthase 2 (CTPS2, Homo sapiens, UniProt Q9NRF8); enzyme activity, RapidFire mass spectrometry; human; geometric mean): 12.6 µM
O=C(O)c1ccc2[nH]c(-c3ccc(OCCCCCCCCCCCCOc4ccc(-c5nc6cc(C(=O)O)ccc6[nH]5)cc4)cc3)nc2c1  IC50 (Dihydrofolate reductase type 2 (Escherichia coli, UniProt P00383); enzyme activity, inhibitor; pH 7): > 200 µM
O=C(O)C(=O)N[C@@H](CS)C(=O)O  IC50 (KDM4E (Homo sapiens, UniProt B2RXH2); enzyme activity, inhibitor): > 1000 µM
O=C(NCCN1CCC(Cc2ccccc2)CC1)c1ccc2cc(Br)ccc2c1  IC50 (SLC6A2 (Homo sapiens, UniProt P23975); transporter uptake, inhibitor, radiometric): 0.02 to 0.19 µM
Cc1cc(C)c(-c2[nH]nc(C)c2C)cc1C(=O)N1CC(c2ccc(C#N)cc2)C1  IC50 (Fatty acid synthase (Fasn, Mus musculus, UniProt P19096); enzyme activity in cells, inhibitor): 0.857 µM
CCCCCCCCCCCCCC(=S)NCCCC[C@H](NC(=O)[C@@H]1CCCN1C(=O)[C@@H](N)CC(C)C)C(=O)N[C@@H](CCCCN)C(=O)N[C@H](C(=O)O)[C@@H](C)O  IC50 (SIRT3 (Homo sapiens, UniProt Q9NTG7)): 8 µM
O=C(N[C@@H](CC1CCCCC1)C(=O)N[C@@H](C[C@H]1CCNC1=O)C(=O)C(=O)NC1CC1)OCc1ccccc1  IC50 (Genome polyprotein, 3C protease (rhinovirus B14, UniProt P03303); 3C protease activity, inhibitor, FRET): 0.02 ± 0.08 µM
O=C(/C=C/c1ccc(O)c2oc(-c3ccc(O)c(O)c3)cc12)O[C@H](Cc1ccc(O)c(O)c1)C(=O)O  IC50 (GPR35 (Homo sapiens, UniProt Q9HC97); DMR desensitization; HT-29; with Tween-80 0.025%, with: zaprinast): 8.65 µM
CN1C[C@@H](c2c[nH]c3cc(Br)ccc23)NC[C@@H]1c1c[nH]c2ccccc12  IC50 (PPP1CA (Oryctolagus cuniculus, UniProt P62139); enzyme activity, inhibitor, fluorescence): ~10 µM
COc1ccc(C[C@H](NC(=O)Cc2cccc(Oc3ccccc3)c2)C(=O)N[C@@H](Cc2c[nH]c3ccccc23)C(=O)NCc2ccc(C)cc2)cc1OC  IC50 (Proteasome component C5/PSMB5; inhibitor): 0.13 µM
CNC(=O)c1cc(C)ccc1NC(=O)c1ccc(-c2c(C)ccc3[nH]ncc23)c(C)c1  IC50 (EPHA5 (Homo sapiens, UniProt P54756); target engagement in cells, BRET): 0.16 µM
O=C(c1cccc(S(=O)(=O)N2CCc3ccccc3C2)c1)N1CCC(OCc2ccccc2)CC1  IC50 (CACNA1C; calcium signal, fluorescence): 2.87 µM
Cc1ccc(C(=O)Nc2ccc(CP(=O)(O)O)cc2CP(=O)(O)O)cc1NC(=O)c1cccc(NC(=O)Nc2cccc(C(=O)Nc3cc(C(=O)Nc4ccc(CP(=O)(O)O)cc4CP(=O)(O)O)ccc3C)c2)c1  IC50 (F11 (Homo sapiens, UniProt P03951); enzyme activity, inhibitor, absorbance; pH 7.4): ~7.4 µM
O=C(NCCCN1CCC(Cc2ccccc2)CC1)c1cc2ccccc2[nH]1  IC50 (SLC6A3 (Homo sapiens, UniProt Q01959); transporter uptake, inhibitor, radiometric): > 10 µM
Cc1cc2c(NC(=O)N[C@@H]3CC(C)(C)Oc4c(OC(F)(F)F)cccc43)cccc2cn1  IC50 (TRPV1 (Homo sapiens, UniProt Q8NER1); heat-activated current, antagonist; with: heat 48 °C): 0.017 µM
COc1ccc(C(=O)/C=C(\O)C(F)(F)C(F)(F)F)cn1  IC50 (Formate-nitrite transporter (FNT, Plasmodium malariae, UniProt A0A1C3KYI2)): 0.38 ± 0.02 µM
O=C(c1cccc(S(=O)(=O)N2CCc3ccccc3C2)c1)N1CCO[C@H](c2ccc(F)cc2)C1  IC50 (KCNA2/KCNA1 (Homo sapiens, UniProt P16389+Q09470); potassium current, inhibitor, automated patch clamp; CHO-K1, concatemer expressing): 3.7 µM
CCCCCCCC(=O)OCCN1CCN(c2cc(Nc3ncc(C(=O)Nc4c(C)cccc4Cl)s3)nc(C)n2)CC1  IC50 (SRC (Homo sapiens, UniProt P12931); enzyme activity, inhibitor): 0.0075 µM
CSCC[C@H](NC(=O)[C@H](Cc1ccccc1)NC(=O)[C@H](Cc1c[nH]cn1)NC(=O)CNC(=O)[C@@H](NC(=O)[C@H](C)NC(=O)[C@H](Cc1c[nH]c2ccccc12)NC(=O)[C@H](CC(C)C)NC(=O)[C@@H]1CCC(=O)N1)[C@@H](C)O)C(N)=O  IC50 (GRPR; ligand displacement in cells, radioligand): 0.19 µM
COCC12C(=O)NC3C4(C(OC)CC1O)C1CC5(O)C(OC)C(O)C(OC(C)=O)(C1C5OC(=O)c1ccccc1)C3(O)C(OC)C24 (centres unmarked)  IC50 (MAPKAPK5 (Homo sapiens, UniProt Q8IW41); enzyme activity, inhibitor, radiometric): 37.5 µM
CCc1nc2cc(C)c(Oc3ccc(OC(F)(F)F)cc3)cc2c(O)c1C  IC50 (mitochondrial complex III subunit (Frankliniella occidentalis, UniProt I6NC77); succinate-cytochrome c oxidoreductase activity, inhibitor; Frankliniella occidentalis, mitochondria; 4 min preincubation, 30 °C): 0.0029 µM
CC(C)=CCN=C(N)NCCC[C@@H](NC(=O)CCCc1ccc(O)cc1)C(=O)N[C@@H](Cc1ccccc1)C(O)CC(=O)N[C@@H](Cc1ccc(O)cc1)C(=O)O (stereo in doubt)  IC50 (MMP9 (Homo sapiens, UniProt P14780); enzyme activity, inhibitor): 65 µM
O=C(OC(C(F)(F)F)C(F)(F)F)N1CCC(CCn2nc3ccccc3n2)CC1  IC50 (Faah (Rattus norvegicus, UniProt P97612); enzyme activity, inhibitor): > 10 µM
CCOC(=O)C(CS)N1C(=O)c2ccc(N(C)C)cc2C1=O (centres unmarked)  IC50 (VIM-2 (Escherichia coli, UniProt Q5U7L7); enzyme activity, inhibitor; pH 7): 0.13 µM
CCC1(CC)C(=O)N(c2cccc(CN3CCN(Cc4ccc(Br)cc4)CC3)c2)C1=O  IC50 (Dipeptidyl peptidase 2 (Homo sapiens, UniProt Q9UHL4); cell-free assay, inhibitor): > 10 µM
CN1CCC2(CC1)C/C(=N\NC(=O)Nc1ccccc1)c1ccccc1O2  IC50 (ERBB2 (Homo sapiens, UniProt P04626); enzyme activity, inhibitor): 0.055 µM
O=c1c(/C=N/NC(=S)N/N=C/c2ccccc2O)coc2ccccc12  IC50 (SOD1 (Homo sapiens, UniProt P00441); enzyme activity, inhibitor; HeLa; 24 h): 0.21 µM
C[C@H](OP(=O)(O)O)[C@H]1NC(=O)[C@@H](CCCNC(=N)N)NC(=O)[C@@H](CCCNC(=N)N)NC(=O)[C@H](CCCNC(=N)N)NC(=O)[C@H](Cc2ccccc2)NC(=O)[C@H](Cc2ccc3ccccc3c2)NC(=O)[C@@H]2CCCCN2C1=O  IC50 (PIN1 (Homo sapiens, UniProt Q13526); fluorescence anisotropy competition; with: FITC-labelled probe): 1.77 ± 0.28 µM
C#CCOc1cccc(Oc2nc3c(c(=O)n(CCCO)c(=O)n3C)n2Cc2ccc(C3(C(F)(F)F)N=N3)cc2)c1  IC50 (TRPC5 (Homo sapiens, UniProt Q9UL62); calcium signal, inhibitor, fluorescence): 0.026 µM
CN(Cc1ccccc1NC(=O)c1cc2ccccc2[nH]c1=O)C1CCCCC1  IC50 (DNA topoisomerase 4 subunit B, with ParC subunit (parE, Escherichia coli K-12, UniProt P20083); DNA relaxation, inhibitor): > 30 µM
CN(Cc1nc2ccccc2s1)C(=O)c1cccc(S(=O)(=O)N2CCc3ccccc3C2)c1  IC50 (CACNA1C; calcium signal, fluorescence): 3.85 µM
COc1ccc([C@@H]2CC(=O)c3c(O)cc(O[C@@H]4O[C@H](CO[C@@H]5O[C@@H](C)[C@H](O)[C@@H](O)[C@H]5O)[C@@H](O)[C@H](O)[C@H]4O)cc3O2)cc1O  IC50 (SLCO1B3 (Homo sapiens, UniProt Q9NPD5); 8-FcA uptake, inhibitor, flow cytometry; HEK293 expressing SLCO1B3; 10 min, with: 8-FcA 2.5 µM): > 100 µM

Repeated from above:
Cc1ccc(CNC(=O)[C@H](CCCCNC(=O)OCc2ccccc2)NC(=O)[C@H](CC2CCCCC2)NC(=O)Cc2cccnc2)cc1  IC50 (Proteasome component C5/PSMB5; β5 activity, inhibitor; with: Suc-LLVY-AMC, PA28α-activated): > 100 µM
CC(C)[C@H](NC(=O)[C@H](C)NC(=O)[C@H](Cc1c[nH]c2ccccc12)NC(=O)[C@H](Cc1c[nH]cn1)NC(=O)[C@H](N)Cc1ccc(O)cc1)C(=O)N[C@H](C)C(=O)N[C@@H](Cc1c[nH]cn1)C(=O)N1CCC[C@@H]1CN[C@@H](Cc1ccccc1)C(N)=O  IC50 (GRPR; inositol phosphate generation, antagonist; Balb 3T3 expressing GRPR; with: GRP 1 nM): 0.168 ± 0.02 µM
O=C(NCc1nc(-c2ccc(Br)cc2)c[nH]1)Nc1ncc(Sc2ccccn2)s1  IC50 (Enoyl-(Acyl-carrier-protein) reductase (Streptococcus pneumoniae, UniProt Q9FBC5); enzyme activity, inhibitor): 0.067 µM
COc1ccc(S(=O)(=O)NCc2c[nH]nc2-c2cccs2)cc1  IC50 (skeletal myosin, rabbit; actin-activated ATPase): 1 ± 0.4 µM
CC(=O)NCC(=O)N[C@@H](CC(=O)O)C(=O)N[C@@H](Cc1ccc(O)cc1)C(=O)N[C@@H](CO)C(=O)N[C@@H](Cc1cnc[nH]1)C(=O)N[C@H]1CSSC[C@@H](C(=O)N[C@H](C(=O)N[C@@H](Cc2ccc(O)cc2)C(=O)N2CCC[C@H]2C(=O)N[C@@H](CC(=O)O)C(=O)N2CCC[C@H]2C(=O)N[C@@H](CCC(=O)O)C(=O)NCC(=O)NCC(=O)NCC(N)=O)[C@@H](C)O)NC(=O)[C@H](CCCCN)NC(=O)[C@H](Cc2c[nH]c3ccccc23)NC(=O)[C@H](Cc2c[nH]c3ccccc23)NC(=O)[C@@H]2CCCN2C(=O)[C@H](Cc2ccc(O)cc2)NC(=O)[C@H](Cc2ccc(O)cc2)NC(=O)[C@H](CCCNC(=N)N)NC(=O)[C@H](CC(C)C)NC(=O)[C@@H]2CCCN2C(=O)[C@H](CO)NC1=O  IC50 (ACE2 (Homo sapiens, UniProt Q9BYF1); inhibitor): 0.158 µM
CCOc1cncc(-c2ccc(NC(=O)C3(c4ccnc(NS(=O)(=O)C5CC5)n4)CCOCC3)nc2)n1  IC50 (CTP synthase 2 (CTPS2, Homo sapiens, UniProt Q9NRF8); enzyme activity, RapidFire mass spectrometry; human; geometric mean): 12.6 µM
